Results from different studies.
Every numbered part comes from another study and shows a few of its results, in no order.
Sequence of UniProt P9WI81 (whole entry, looked up): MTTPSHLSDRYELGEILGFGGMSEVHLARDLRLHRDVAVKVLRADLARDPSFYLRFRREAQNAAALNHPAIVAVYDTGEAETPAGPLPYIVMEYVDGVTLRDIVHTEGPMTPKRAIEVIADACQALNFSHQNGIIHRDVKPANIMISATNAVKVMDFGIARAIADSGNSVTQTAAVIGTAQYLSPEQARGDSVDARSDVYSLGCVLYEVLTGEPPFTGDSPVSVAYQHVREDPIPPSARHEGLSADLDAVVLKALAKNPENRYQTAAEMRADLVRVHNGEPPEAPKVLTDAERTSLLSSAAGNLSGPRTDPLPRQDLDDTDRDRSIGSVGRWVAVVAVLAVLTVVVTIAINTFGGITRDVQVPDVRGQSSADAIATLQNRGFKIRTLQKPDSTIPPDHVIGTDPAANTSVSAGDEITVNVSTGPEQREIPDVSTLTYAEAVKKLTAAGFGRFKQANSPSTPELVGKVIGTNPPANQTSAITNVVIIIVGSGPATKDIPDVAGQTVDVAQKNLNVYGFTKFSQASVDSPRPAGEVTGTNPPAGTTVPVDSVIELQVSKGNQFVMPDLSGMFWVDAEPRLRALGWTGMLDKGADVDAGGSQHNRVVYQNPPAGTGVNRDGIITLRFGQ

Block 1
Target: DNA polymerase theta, ATPase domain (POLQ, Homo sapiens, UniProt O75417)
Sequence of UniProt O75417 (whole entry, unmodified, looked up): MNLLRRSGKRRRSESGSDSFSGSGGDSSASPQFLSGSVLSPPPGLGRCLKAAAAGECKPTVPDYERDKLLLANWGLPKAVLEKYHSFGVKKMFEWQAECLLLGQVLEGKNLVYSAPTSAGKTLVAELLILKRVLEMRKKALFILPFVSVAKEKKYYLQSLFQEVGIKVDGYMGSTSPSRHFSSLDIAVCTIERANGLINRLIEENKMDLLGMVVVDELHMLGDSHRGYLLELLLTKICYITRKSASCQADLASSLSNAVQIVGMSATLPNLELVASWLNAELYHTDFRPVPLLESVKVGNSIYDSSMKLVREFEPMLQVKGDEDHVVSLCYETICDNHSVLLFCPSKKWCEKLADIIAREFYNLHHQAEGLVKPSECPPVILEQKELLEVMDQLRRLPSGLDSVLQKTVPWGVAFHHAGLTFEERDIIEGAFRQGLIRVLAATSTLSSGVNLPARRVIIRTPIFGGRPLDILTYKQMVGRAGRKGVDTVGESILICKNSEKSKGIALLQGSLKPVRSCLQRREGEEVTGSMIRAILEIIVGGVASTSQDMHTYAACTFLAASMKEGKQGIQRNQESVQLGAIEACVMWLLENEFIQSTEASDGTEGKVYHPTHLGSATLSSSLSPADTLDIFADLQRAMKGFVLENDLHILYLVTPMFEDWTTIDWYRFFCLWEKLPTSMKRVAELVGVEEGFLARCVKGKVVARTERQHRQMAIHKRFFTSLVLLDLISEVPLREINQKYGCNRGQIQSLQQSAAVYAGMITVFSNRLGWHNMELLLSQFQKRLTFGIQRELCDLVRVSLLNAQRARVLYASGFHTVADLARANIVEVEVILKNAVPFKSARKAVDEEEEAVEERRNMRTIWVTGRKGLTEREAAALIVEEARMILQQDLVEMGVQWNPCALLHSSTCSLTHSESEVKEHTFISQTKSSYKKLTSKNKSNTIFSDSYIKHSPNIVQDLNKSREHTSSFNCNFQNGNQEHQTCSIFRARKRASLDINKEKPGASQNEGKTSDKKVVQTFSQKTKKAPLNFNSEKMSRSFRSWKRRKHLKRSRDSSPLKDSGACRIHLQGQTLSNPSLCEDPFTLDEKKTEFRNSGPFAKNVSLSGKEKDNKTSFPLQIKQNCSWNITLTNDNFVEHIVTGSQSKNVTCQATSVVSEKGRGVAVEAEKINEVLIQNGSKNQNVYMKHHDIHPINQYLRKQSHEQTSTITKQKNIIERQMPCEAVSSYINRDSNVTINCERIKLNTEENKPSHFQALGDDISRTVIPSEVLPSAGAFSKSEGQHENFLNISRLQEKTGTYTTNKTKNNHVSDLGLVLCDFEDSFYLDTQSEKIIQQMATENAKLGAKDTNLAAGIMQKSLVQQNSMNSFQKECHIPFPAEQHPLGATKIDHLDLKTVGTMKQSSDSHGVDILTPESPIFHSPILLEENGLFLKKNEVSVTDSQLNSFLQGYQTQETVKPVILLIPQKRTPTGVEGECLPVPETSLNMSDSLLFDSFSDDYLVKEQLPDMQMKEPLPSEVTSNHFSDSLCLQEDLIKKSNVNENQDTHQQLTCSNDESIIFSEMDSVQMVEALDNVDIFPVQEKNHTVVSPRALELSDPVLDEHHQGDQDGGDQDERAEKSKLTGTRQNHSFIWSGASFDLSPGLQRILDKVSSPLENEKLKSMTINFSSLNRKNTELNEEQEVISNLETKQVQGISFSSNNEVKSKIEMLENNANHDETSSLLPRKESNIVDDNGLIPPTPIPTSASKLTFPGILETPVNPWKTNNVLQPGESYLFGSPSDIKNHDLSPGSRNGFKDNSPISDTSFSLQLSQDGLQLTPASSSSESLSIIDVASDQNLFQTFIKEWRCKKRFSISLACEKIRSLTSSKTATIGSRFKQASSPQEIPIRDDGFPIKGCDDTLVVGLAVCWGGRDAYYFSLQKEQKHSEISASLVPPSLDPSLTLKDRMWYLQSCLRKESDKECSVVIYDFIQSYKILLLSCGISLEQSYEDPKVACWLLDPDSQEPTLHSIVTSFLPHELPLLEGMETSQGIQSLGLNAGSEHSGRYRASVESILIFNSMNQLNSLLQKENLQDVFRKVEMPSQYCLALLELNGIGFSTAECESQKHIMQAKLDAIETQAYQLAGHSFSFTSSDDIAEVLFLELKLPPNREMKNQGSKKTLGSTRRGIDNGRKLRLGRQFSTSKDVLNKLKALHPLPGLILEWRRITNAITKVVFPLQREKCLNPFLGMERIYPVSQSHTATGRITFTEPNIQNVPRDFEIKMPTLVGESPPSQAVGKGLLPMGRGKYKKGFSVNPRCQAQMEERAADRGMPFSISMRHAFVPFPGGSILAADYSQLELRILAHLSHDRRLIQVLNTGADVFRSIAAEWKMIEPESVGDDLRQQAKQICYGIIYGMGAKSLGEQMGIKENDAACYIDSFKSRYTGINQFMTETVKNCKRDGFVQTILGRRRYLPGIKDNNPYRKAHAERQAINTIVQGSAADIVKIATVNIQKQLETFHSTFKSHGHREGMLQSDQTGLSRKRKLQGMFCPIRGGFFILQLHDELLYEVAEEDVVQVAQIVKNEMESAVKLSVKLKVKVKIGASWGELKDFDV
Observed: enzyme activity
Mode: inhibitor
Tested at: 77 µM
Relative to: untreated
Quantity: remaining activity
SMILES = CO[C@H]1CC[C@@H](O[C@H]2C[C@H]([C@]3(C)CC[C@]4(C[C@H](O)[C@@H](C)[C@@H]([C@@H](C)/C=C(\C)C(=O)[C@H](C)C[C@H](C)C(=O)O)O4)O3)O[C@]3(O[C@@H]([C@H]4O[C@@](O)(CO)[C@H](C)C[C@@H]4C)C[C@@H]3C)[C@@H]2C)O[C@@H]1C; value = 99.2%
SMILES = NN=C(N)N; value = 99.7%
SMILES = COc1cc2c(cc1O)[C@@H]1Cc3ccc(OC)c(O)c3CN1CC2; value = 95.3%
SMILES = CCN1C[C@]2(COC)CC[C@H](OC)[C@@]34C1[C@]1(OCO[C@@]15C[C@H](OC)[C@H]1C[C@@H]3[C@@H]5[C@H]1OC)[C@@H](O)[C@H]24; value = 101%
SMILES = c1ccc2c(c1)sc1ccccc12; value = 94.8%
SMILES = C[C@@H]1CC[C@@]2(NC1)O[C@H]1C[C@H]3[C@@H]4CC=C5C[C@@H](O)CC[C@]5(C)[C@H]4CC[C@]3(C)[C@H]1[C@@H]2C; value = 99.6%
SMILES = O=C(O)CC[N+](=O)[O-]; value = 103%

Block 2
Cell line: HEK-293T
Observed: pseudovirus infection
Technique: FDA-approved drug library counter-screen
Organism: VSV pseudotyped with VSV-G
Tested at: 10 µM
Time: 16 h
Relative to: vehicle-treated
Quantity: GFP-positive cells
Structure (SMILES) = CC1=C(CC(=O)O)c2cc(F)ccc2/C1=C\c1ccc([S+](C)[O-])cc1 (stereo not drawn); value = 107%
Structure (SMILES) = O=C(O)c1cc(/N=N/c2ccc(S(=O)(=O)Nc3ccccn3)cc2)ccc1O; value = 94.4%
Structure (SMILES) = CN1CCc2nc(C(=O)N[C@@H]3C[C@@H](C(=O)N(C)C)CC[C@@H]3NC(=O)C(=O)Nc3ccc(Cl)cn3)sc2C1; value = 111%
Structure (SMILES) = Nc1ccc(S(=O)(=O)NC(=O)c2ccccc2)cc1; value = 112%
Structure (SMILES) = CC(=O)N1CCN(c2ccc(OCC3COC(Cn4ccnc4)(c4ccc(Cl)cc4Cl)O3)cc2)CC1 (stereo not drawn); value = 121%
Structure (SMILES) = O=c1[nH]cnc2c1ncn2[C@H]1CC[C@@H](CO)O1; value = 114%
Structure (SMILES) = CC(=O)Oc1ccccc1C(=O)Nc1ncc([N+](=O)[O-])s1; value = 2.18%
Structure (SMILES) = CCCNS(=O)(=O)Nc1ncnc(OCCOc2ncc(Br)cn2)c1-c1ccc(Br)cc1; value = 95%
Structure (SMILES) = C[N+](C)(C)CCOC(N)=O; value = 99%
Structure (SMILES) = C[N+]1(C)[C@@H]2CC[C@H]1C[C@@H](OC(=O)C(O)c1ccccc1)C2 (stereo partly drawn); value = 115%
Structure (SMILES) = CN(C)[C@@H]1C(O)=C(C(N)=O)C(=O)[C@@]2(O)C(O)=C3C(=O)c4c(O)ccc(Cl)c4[C@@H](O)[C@H]3C[C@@H]12; value = 113%
Structure (SMILES) = O=C(O)c1ccccc1O; value = 92.3%
Structure (SMILES) = CC[C@H](C)C(=O)O[C@H]1C[C@H](O)C=C2C=C[C@H](C)[C@H](CC[C@@H](O)C[C@@H](O)CC(=O)O)[C@H]21; value = 110%
Structure (SMILES) = C=CC1=C(C(=O)O)N2C(=O)[C@@H](NC(=O)/C(=N\OCC(=O)O)c3csc(N)n3)[C@H]2SC1; value = 78.7%
Structure (SMILES) = N[C@@H](C(=O)N[C@@H]1C(=O)N2C(C(=O)O)=C(Cl)CS[C@H]12)c1ccccc1; value = 92.7%

Block 3
Target: chymotrypsin
Observed: enzyme activity
Mode: inhibitor
Tested at: 10 µM
Setting: with DTT
Quantity: inhibition
SMILES = Cc1ccc(-n2sc3ccccc3c2=O)cc1; value = 1.1%
SMILES = CO[C@@H]1[C@H](OC(=O)NC(=O)CCl)CC[C@]2(CO2)[C@H]1[C@@]1(C)O[C@@H]1CC=C(C)C; value = 7.3%
SMILES = COc1ccc2nc(S)[nH]c2c1; value = 8.5%
SMILES = CC(Cc1ccc(O)c(O)c1)C(C)Cc1ccc(O)c(O)c1 (stereo not drawn); value = 4%
SMILES = Cc1cc(C)cc(N2C(=O)CC(Sc3nnc[nH]3)C2=O)c1 (stereo not drawn); value = 2.9%
SMILES = C[n+]1c2cc(N)ccc2cc2ccc(N)cc21.Nc1ccc2cc3ccc(N)cc3nc2c1; value = 22%
SMILES = N#CSc1cc(SC#N)c(N)nc1N; value = 4.6%
SMILES = CC(C)(C)NC(=O)N[C@H](C(=O)N1C[C@H]2[C@@H]([C@H]1C(=O)NC(CC1CCC1)C(=O)C(N)=O)C2(C)C)C(C)(C)C (stereo partly drawn); value = 99.9%
SMILES = CN1CCN(C2=C(Cl)C(=O)N(c3ccc(Cl)c(Cl)c3)C2=O)CC1; value = 9.7%
SMILES = Cc1ccccc1N(C)C(=O)c1ccc([S+]([O-])c2nccs2)c([N+](=O)[O-])c1 (stereo not drawn); value = 0.131%
SMILES = O=C(NC(=S)N1CCCc2ccccc21)c1ccccc1; value = 5.4%
SMILES = Sc1nnc(-c2ccccc2Cl)o1; value = 1.5%
SMILES = O=C(CC1Sc2ncnn2C1=O)Nc1ccc(Br)cc1 (stereo not drawn); value = 8.4%

Other studies, line by line
Structure (SMILES) = CNCc1ccccc1-c1csc([C@@H](C)Nc2nc(C)nc3cc(OC)c(OC)cc23)c1; target = Serine/threonine-protein kinase PknB (pknB, Mycobacterium tuberculosis, UniProt P9WI81); observed = cell-free assay; technique = competition with immobilised ligand; tested at = 1 µM; quantity = remaining binding; value = 76%

Some of these lines once more (block 3):
SMILES = Cc1cc(C)cc(N2C(=O)CC(Sc3nnc[nH]3)C2=O)c1 (stereo not drawn); value = 2.9%
SMILES = C[n+]1c2cc(N)ccc2cc2ccc(N)cc21.Nc1ccc2cc3ccc(N)cc3nc2c1; value = 22%
SMILES = N#CSc1cc(SC#N)c(N)nc1N; value = 4.6%
